Assay results from different studies.
A part holds a random share of what one study measured.

Set 1
Target: Sal-like protein 4, full length isoform B (SALL4, Homo sapiens, UniProt Q9UJQ4-2, residues 1-616)
Technique: universal PBM
Molecule type: double-stranded DNA, one strand shown
Sample: in vitro
Tested at: not given
Notes: 8-mer, flanks averaged, mean of replicates
Reading: higher = stronger binding
Target sequence (chain): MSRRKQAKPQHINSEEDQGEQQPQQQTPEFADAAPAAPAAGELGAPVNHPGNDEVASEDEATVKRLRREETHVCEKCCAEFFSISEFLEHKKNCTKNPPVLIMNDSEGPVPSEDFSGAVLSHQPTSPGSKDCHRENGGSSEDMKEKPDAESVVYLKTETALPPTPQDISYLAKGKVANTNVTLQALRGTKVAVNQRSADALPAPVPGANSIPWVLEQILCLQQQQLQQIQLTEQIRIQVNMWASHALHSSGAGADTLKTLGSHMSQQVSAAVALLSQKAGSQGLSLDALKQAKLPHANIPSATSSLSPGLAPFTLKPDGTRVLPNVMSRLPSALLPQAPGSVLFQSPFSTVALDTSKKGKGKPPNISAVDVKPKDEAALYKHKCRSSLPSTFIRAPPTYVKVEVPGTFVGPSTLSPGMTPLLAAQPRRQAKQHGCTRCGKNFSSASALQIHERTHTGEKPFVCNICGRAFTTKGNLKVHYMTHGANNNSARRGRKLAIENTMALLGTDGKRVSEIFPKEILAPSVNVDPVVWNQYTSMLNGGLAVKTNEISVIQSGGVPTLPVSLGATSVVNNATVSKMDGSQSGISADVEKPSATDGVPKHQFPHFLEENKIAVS
Sequence	E-score
GGACACGA	-0.0251
CTTACGTA	0.27
GTCAACAA	0.063
CTATCTAA	0.13
GACCACCC	-0.335
CATCATGA	0.0759
AAAGTACT	0.133
AAGAGTAA	0.238
CTGGACTC	-0.0537
TGCGAAAA	0.205
AAGGATGA	0.249
ACCACGGA	-0.331
GATCAATC	0.0118
ATGTGGGG	0.064
AGGGCACC	-0.39
AAGTTTAG	0.0966
AGAGTAAA	0.134
AATTCCAC	0.0428
AGACCATG	-0.204
AAGGATGC	-0.0531
GGGTGCAC	-0.265
TCCCCTCA	-0.0778
AGCAGATG	-0.188
GGTGTAGA	-0.149

Set 2
Target: RNA binding protein fox-1 homolog 2, RRM domain, GST-SBP tag (RBFOX2, Homo sapiens, UniProt O43251-10, residues 100-194)
Technique: RNA Bind-n-Seq
Molecule type: RNA
Sample: in vitro
Tested at: 365 nM
Notes: natural RNA segment, single round, ends assumed
Relative to: no-protein control
Reading: higher = stronger binding
Construct (chain): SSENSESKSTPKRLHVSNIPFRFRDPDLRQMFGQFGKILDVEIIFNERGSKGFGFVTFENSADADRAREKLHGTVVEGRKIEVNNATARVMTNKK
Sequence	RBNS enrichment (R)
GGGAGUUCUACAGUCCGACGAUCCUGAGCUCUACCCAUGAGGACCUCUACUCCCAACCCCACAGCCUCUCCAAGGACCCAGGCGCCAGCAGCCCCAGGACACAGGGGACUCAGUGUGUGGGACUUGGUCACUCUGGAAUUCUCGGGUGCCAA	0.397
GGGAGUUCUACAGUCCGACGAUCCAAUACCAAGUAUAGCCUAUGGCAGAAAAAAUGUCUGUAAAUAUGUUUUUAAAGGUGGAUUUUGUUUAAAAAAUCUUAAUGAAUGAGUCUGUUGUGUGUCAUGCCAGUGAUGGAAUUCUCGGGUGCCAA	0.865
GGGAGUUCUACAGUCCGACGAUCUUCUGAGGCCAUCUGCAGAAAGUCCCCUGUGCCUUCUUUGGGAAGUCUCUUGUCAAUCCACAAGAACAAUGCAAAGUUAUGUUUGGGAACACUACAGGAAUAUGUAAUUGUGGAAUUCUCGGGUGCCAA	0.234
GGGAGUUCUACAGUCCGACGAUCUACUGAUAACCAUAUUCUGGCUUGUUCCCUUACCCCCUACUUCUAUCCAAUUUUCUCUGCUAGGGGUUAUCAUUAGCAAUUGACAUGCUAAAGGUUUUGGAGCCCACCUAUGGAAUUCUCGGGUGCCAA	0.716
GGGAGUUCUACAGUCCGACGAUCUAGAAUAUGUGCUCAGAUCUGAGUUAUAUUUAGUUUUGGAAGGUAAGUUGAAGAGUACUUUUGAUCAGUUUAUGAUUCAGUUUAUGAUUUUAGUUUUUGCCUUCAUGUUAUGGAAUUCUCGGGUGCCAA	0.351
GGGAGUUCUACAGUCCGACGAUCAUUGGUUUCAGAAAGAAUCUUAGCUACCUAGAAUUUACAGUCUCUGUUUCAUGGCAACACUGGAUAAUGGCUUUGUGAAAUUUAAAAAAUUUUUGUAGCGACUGUAAACAUGGAAUUCUCGGGUGCCAA	0.418
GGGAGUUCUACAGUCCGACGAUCGAAGUUGUGAAUGAAGUUGUAGCCAUUCCCUGCCCUGCACUAUAUUUUUCAGGGUGCAUUUUAAAUACUAUUGAUUCAAACAGUGGUGGCUUGCGUUUUUUUAGGUAUAUUGGAAUUCUCGGGUGCCAA	4.1
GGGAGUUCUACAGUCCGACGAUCUAGGGAUCAUUAGGUUCUGGUUUGAACAUUCUGAAUGUGAACAAAAUGAAAUAGUAGUUAAGAGGUGUUUUCCCACUGUGUUUAAAGAGAACACUAGUAAUUCUGGUUUUUGGAAUUCUCGGGUGCCAA	1.51
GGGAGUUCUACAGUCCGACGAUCGGCAUUUCAGCGUCAAGUGCACUUAGCGGGGUACCCAGCCCCCCCAGUCCCAACACCUGUCCUGUGUCUCAGGGUGGUCCUAGCUUCUCCUUAGGCAGCCAGGAAUUGGAUGGAAUUCUCGGGUGCCAA	0.275
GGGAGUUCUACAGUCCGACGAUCCAAAUGGAGAGGAAGGGGUCCCUGUGGAGGACCCAACCACAGAAUCUGAGGUGUUCAGAAUCUGACCCUCUUGGCAGAGAUCUGUCUGGGAAAUUUAACCAGGCAGUGGAUGGAAUUCUCGGGUGCCAA	0.434
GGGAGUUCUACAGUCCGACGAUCUGAAGAUGUGAAUGGGUGGUACGAUUUCAACACUGGUUAAUUUCACACUCCAUCUCCCCGCUUUGUAAAUACCCAUCGGGAAGAGACUUUUUUUCCAUGGUGAAGAGCAAUGGAAUUCUCGGGUGCCAA	0.313
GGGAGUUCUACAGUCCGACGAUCAGCCCUCCAGGUCCUCCAGCUCUGUCAGAUGGAGGGCUCUCGGGCCUAGAUCCCACUGGUAGGCCUCGUGGCUGGCAGCAGUGCUCUGGGAAUAAACAGCUGCCCUAGCCUGGAAUUCUCGGGUGCCAA	0.549

Set 3
Target: Interferon regulatory factor 5, full length, phosphomimetic (IRF5, Homo sapiens, UniProt Q13568-2, residues 1-514, S451D/S453D/S456D/S462D)
Technique: protein-binding microarray
Molecule type: double-stranded DNA, one strand shown
Sample: in vitro
Tested at: 940 nM top
Notes: 60-bp whole probe
Added: salmon DNA 0.4 mg/ml
Relative to: random background probes
Reading: higher = stronger binding
Shared flanks, not repeated: GCCTAGCAC … GTCTTGATTCGCTTGACGCTGCTG
Sequence	fitted relative affinity [z-score]
ACTCTAATCTCACTCTGTCCGTGCTAG	1.48
CTGTGGGAGGCCCGCGGGAGGTGCTAG	-1.25
TTAGGACTGCGTTTCGGTTAGTGCTAG	2.48
TTAGGTTTCCTACTGCTTTCGTGCTAG	0.877
TTAGATATCGGGTATCGATTCGTGCTA	2.81
GACCGACTGGGGTATCGGGACGTGCTA	0.9
TTAGATTTCGGGACTTGATTAGTGCTA	0.414
TTAGATTTCAGTCTTGATTAGTGCTAG	1.06
GACGGTATCGGGACTCGGGACGTGCTA	3.13
TTAGGTTTCCTATCCCTTTAGTGCTAG	1.23
TCATGTTTCTAATATTCTACTGTGCTA	0.934
TTAGGACTGGGACTGCGTTAGTGCTAG	-0.633
CTTTCTTTCCATACTGCAAGGTGCTAG	1.83
TTAGGTTCCCTTTTACTTTAGTGCTAG	0.736
GACGGTTCCCTTTTCATGACGTGCTAG	1.03
TCATTTTTCTCCTATTTAACTGTGCTA	1.91
CCCATTCCAGGGTTTTATGGAGTGCTA	-0.351
GACGGTATCGATATCGGGACGTGCTAG	9.13
TTGGAACTGGGGTTTCGATTAGTGCTA	4.92
TTAGGTTTCGGGTATAGGTTAGTGCTA	10.5
GACGATCTCAGTATCGAGTCGTGCTAG	3.47
GACGGTTTCCTACTGCCGACGTGCTAG	1.19
TTAGGTTTGGGGACTGGGTTAGTGCTA	-0.161
TCAGAATTACCTCTGGAACTGTGCTAG	-0.447
GACGGTTTCGGTTTAGGGACGTGCTAG	12.8

Set 4
Target: Histone acetyltransferase KAT6A, winged helix 1, GST fusion (KAT6A, Homo sapiens, UniProt Q92794, residues 1-85)
Technique: protein binding microarray
Molecule type: double-stranded DNA, one strand shown
Sample: in vitro
Tested at: not given
Notes: 8-mer, flanks averaged, mean of 2 arrays, mostly near background
Relative to: not given
Reading: higher = stronger binding
Construct (chain): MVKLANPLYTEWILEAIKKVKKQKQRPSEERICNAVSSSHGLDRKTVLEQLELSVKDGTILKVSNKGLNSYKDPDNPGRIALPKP
Sequence	E-score
AACGAATA	-0.2
GGAGAGAC	0.0429
CGGTCAAC	0.201
ATCCCGGC	0.365
AATAAAGG	-0.09
ATTCGGAG	-0.158
CGTCTAGA	0.123
CAGCATGC	0.00436
GCAACCCC	0.198
CCCACAAG	-0.145
ATAAGTGC	-0.153
CCCACCAC	-0.145
GCAACAAA	-0.23
CACTCCAC	-0.27
CCAGGCCC	-0.16
GTCTCTAA	-0.125
GCGGGTCC	0.341
TCGCCAGA	-0.169
ACAGCCCA	-0.173
ATAGGAAA	-0.0398
CTCCAATC	-0.205
AATAAGCC	-0.00093

For quick reference, copied from above (set 4):
Sequence	E-score
AATAAGCC	-0.00093
CGGTCAAC	0.201
CACTCCAC	-0.27
ATCCCGGC	0.365
GCGGGTCC	0.341
ATAGGAAA	-0.0398
ACAGCCCA	-0.173
CAGCATGC	0.00436
TCGCCAGA	-0.169
CCCACAAG	-0.145
CCAGGCCC	-0.16
AACGAATA	-0.2
